{"data": "Experimental data pooled from the literature", "note": "Each numbered part is a random draw from the data of one study; scales do not carry over between parts. Several values in a cell are separate wells, animals, samples, runs or records.", "UniProt Q15418, sequence (whole entry, looked up)": "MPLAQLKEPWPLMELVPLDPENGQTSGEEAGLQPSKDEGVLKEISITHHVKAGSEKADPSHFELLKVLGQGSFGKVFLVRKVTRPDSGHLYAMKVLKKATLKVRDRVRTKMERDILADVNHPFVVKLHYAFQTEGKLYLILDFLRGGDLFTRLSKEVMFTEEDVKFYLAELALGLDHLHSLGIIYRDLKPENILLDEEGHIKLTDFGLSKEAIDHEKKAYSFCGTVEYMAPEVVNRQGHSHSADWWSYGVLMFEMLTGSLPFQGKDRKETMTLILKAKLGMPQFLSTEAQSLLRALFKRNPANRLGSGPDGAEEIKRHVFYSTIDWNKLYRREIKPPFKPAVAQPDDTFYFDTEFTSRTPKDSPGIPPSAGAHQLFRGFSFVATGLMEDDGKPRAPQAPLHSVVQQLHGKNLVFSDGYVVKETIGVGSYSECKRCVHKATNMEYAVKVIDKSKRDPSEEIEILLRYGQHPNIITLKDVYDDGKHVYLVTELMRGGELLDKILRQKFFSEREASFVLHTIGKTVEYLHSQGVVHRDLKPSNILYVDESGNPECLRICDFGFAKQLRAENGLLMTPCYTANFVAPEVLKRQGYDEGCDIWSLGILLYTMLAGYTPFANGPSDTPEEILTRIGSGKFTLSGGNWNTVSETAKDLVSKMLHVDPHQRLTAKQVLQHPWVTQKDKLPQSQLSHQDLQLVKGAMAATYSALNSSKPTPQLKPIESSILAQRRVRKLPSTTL", "UniProt Q9UPZ9, sequence (whole entry, looked up)": "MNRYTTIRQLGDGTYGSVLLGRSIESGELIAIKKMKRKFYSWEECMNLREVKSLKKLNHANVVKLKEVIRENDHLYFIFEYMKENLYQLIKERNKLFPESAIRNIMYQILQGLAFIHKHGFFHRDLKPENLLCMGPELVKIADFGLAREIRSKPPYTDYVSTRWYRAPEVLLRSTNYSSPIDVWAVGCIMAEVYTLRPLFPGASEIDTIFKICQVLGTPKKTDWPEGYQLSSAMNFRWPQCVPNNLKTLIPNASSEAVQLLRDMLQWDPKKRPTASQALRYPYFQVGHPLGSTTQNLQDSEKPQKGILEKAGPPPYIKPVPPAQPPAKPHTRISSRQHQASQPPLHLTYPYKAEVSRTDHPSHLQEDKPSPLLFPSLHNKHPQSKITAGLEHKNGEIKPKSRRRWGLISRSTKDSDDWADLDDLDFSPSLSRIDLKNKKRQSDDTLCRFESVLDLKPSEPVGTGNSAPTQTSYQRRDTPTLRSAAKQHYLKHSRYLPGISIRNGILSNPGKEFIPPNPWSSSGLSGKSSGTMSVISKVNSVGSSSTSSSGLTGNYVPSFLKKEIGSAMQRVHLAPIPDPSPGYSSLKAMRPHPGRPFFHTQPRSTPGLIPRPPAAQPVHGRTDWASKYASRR", "UniProt O95382, sequence (whole entry, looked up)": "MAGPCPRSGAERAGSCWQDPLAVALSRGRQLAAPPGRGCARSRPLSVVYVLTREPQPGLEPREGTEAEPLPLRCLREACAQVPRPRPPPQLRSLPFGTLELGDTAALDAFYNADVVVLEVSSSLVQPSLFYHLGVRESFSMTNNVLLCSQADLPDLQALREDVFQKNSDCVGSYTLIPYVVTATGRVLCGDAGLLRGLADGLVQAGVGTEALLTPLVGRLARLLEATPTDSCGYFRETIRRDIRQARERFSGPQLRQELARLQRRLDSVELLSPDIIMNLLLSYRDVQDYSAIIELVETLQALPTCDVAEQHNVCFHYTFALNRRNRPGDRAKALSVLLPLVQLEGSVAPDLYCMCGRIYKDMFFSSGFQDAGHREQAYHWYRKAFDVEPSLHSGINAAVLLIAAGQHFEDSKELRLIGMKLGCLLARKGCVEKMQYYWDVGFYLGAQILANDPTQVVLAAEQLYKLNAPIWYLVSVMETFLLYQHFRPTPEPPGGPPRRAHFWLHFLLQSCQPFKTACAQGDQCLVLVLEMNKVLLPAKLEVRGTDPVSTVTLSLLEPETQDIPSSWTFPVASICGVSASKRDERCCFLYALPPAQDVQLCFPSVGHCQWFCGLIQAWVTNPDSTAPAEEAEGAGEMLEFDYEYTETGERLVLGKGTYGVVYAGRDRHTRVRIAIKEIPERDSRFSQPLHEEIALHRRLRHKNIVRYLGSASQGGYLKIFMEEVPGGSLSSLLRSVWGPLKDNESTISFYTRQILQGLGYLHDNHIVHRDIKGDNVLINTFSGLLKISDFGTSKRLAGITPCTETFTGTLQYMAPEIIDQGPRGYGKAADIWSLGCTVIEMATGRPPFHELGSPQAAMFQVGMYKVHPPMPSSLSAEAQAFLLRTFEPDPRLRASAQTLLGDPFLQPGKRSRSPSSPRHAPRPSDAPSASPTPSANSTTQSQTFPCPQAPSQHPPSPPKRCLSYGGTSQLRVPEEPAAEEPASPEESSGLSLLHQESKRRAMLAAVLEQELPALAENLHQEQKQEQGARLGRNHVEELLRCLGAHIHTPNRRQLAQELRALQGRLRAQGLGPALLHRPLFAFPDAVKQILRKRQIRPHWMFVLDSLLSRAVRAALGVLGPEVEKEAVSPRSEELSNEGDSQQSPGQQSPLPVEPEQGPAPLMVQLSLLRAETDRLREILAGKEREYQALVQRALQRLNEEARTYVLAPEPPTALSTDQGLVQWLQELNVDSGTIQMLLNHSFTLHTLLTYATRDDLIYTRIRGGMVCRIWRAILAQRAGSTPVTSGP", "UniProt P33981, sequence (whole entry, looked up)": "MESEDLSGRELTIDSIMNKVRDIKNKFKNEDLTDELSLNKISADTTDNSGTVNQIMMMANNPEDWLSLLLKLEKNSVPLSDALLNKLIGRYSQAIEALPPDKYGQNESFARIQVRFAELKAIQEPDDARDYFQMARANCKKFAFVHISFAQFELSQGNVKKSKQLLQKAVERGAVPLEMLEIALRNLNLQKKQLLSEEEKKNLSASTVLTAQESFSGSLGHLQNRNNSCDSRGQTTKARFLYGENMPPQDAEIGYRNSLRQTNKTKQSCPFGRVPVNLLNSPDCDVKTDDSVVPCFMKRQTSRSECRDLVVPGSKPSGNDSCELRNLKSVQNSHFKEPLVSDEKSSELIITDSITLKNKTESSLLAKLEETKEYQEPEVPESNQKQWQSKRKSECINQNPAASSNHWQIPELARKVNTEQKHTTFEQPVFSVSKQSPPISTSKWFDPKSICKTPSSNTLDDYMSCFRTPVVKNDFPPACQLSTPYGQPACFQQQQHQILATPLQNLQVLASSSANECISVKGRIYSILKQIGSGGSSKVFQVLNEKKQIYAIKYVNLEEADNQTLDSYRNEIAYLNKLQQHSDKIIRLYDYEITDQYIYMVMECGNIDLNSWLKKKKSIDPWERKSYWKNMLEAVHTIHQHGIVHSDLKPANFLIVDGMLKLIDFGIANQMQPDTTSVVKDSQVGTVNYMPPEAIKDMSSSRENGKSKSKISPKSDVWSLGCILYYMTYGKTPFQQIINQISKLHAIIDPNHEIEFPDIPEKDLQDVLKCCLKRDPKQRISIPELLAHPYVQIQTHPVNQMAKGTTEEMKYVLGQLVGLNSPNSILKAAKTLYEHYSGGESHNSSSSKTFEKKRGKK", "UniProt P11802, sequence (whole entry, looked up)": "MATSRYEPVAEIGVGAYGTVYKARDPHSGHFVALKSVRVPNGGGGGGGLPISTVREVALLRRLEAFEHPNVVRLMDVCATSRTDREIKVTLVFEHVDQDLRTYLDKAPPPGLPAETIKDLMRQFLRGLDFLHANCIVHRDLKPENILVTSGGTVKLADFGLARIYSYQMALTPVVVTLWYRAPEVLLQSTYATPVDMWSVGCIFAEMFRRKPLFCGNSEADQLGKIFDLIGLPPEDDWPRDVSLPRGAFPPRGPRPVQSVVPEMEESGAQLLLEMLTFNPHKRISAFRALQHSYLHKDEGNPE", "UniProt O00329, sequence (whole entry, looked up)": "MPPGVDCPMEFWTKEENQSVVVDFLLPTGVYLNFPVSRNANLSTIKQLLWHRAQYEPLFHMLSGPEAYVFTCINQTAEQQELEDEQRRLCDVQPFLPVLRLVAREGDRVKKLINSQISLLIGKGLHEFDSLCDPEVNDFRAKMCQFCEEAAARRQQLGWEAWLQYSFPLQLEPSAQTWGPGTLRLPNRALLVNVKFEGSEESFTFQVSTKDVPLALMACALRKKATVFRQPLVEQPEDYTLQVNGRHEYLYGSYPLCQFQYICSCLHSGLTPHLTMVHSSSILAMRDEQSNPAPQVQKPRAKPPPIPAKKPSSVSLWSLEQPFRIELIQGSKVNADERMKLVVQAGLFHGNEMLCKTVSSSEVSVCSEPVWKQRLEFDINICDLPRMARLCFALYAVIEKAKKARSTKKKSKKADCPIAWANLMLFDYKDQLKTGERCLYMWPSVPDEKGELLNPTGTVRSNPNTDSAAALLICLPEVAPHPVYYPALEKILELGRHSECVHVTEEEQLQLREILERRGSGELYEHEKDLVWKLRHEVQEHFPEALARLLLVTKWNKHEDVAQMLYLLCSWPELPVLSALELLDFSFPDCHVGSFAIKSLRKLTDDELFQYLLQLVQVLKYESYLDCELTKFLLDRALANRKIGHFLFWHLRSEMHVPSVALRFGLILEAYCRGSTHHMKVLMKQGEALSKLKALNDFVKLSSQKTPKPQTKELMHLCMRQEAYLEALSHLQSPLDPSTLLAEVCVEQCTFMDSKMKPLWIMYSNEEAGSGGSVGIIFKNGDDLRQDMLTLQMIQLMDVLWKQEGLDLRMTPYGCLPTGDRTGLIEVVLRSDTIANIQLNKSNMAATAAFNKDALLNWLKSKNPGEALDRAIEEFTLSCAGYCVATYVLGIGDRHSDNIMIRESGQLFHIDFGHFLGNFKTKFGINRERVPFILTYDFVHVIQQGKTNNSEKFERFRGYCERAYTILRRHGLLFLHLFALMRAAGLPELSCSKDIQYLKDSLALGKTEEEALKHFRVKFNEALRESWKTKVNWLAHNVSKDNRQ"}
{"data": "Series 1", "host": "mouse", "sample": "microsomes or S9", "tested at": "2 µM", "time": "0.5 h"}
{"Compound": "CCn1nccc1-c1cc(C(=O)O)c2ccc(Cl)c(C)c2n1", "remaining compound [%]": 79.5}
{"Compound": "COC(=O)c1c(NS(C)(=O)=O)sc2c1CCCC2", "remaining compound [%]": 3.37}
{"Compound": "O=C(COc1ccc(Cl)cc1Cl)Nc1nc2n(n1)C(c1ccccc1)CC(=O)N2 (stereo not shown)", "remaining compound [%]": 45.4}
{"Compound": "Cc1ccc2c(c1)Oc1cc(Cl)c(S(=O)(=O)N3CCc4ccccc4C3)cc1C(=O)N2", "remaining compound [%]": "> 100"}
{"data": "Series 2", "SMILES": "CC(C)(C)c1cnc(CSc2cnc(NC(=O)C3CCN(C(=O)COCCOCCSc4cccc5c4C(=O)N(C4CCC(=O)NC4=O)C5=O)CC3)s2)o1 (stereo not shown)", "cell line": "HH", "technique": "CCK-8"}
{"tested at": "250 nM", "viability": "93.7% and 93%"}
{"tested at": "100 nM", "viability": "98.6% and 99.4%"}
{"tested at": "1 nM", "viability": "99.2% and 100%"}
{"tested at": "200 nM", "viability": "95.3% and 98.1%"}
{"data": "Series 3", "organism": "Sarcocystis neurona", "effect on": "parasite growth", "tested at": "10 µM", "time": "96 h", "baseline": "untreated"}
{"Compound": "CCN(CC)CC(=O)Nc1c(C)cccc1C", "log2 fold change": 0.4}
{"Compound": "C[C@H]1O[C@@H](O[C@H]2[C@@H](O)C[C@H](O[C@H]3[C@@H](O)C[C@H](O[C@H]4CC[C@@]5(C)[C@H](CC[C@@H]6[C@@H]5C[C@@H](O)[C@]5(C)[C@@H](C7=CC(=O)OC7)CC[C@]65O)C4)O[C@@H]3C)O[C@@H]2C)C[C@H](O)[C@@H]1O", "log2 fold change": -1.03}
{"Compound": "CC1(C)S[C@@H]2[C@H](NC(=O)[C@H](N)c3ccc(O)cc3)C(=O)N2[C@H]1C(=O)O", "log2 fold change": 0.27}
{"Compound": "C[N+]1(C)CCC(OC(=O)C(O)(c2ccccc2)C2CCCC2)C1 (stereo not shown)", "log2 fold change": 0.43}
{"Compound": "COCCOC(=O)C1=C(C)NC(C)=C(C(=O)OC(C)C)C1c1cccc([N+](=O)[O-])c1 (stereo not shown)", "log2 fold change": 0.29}
{"data": "Series 4", "Compound": "c1ccc(N2CCN(Cc3nc4ccccc4[nH]3)CC2)nc1", "technique": "competition with immobilised ligand", "tested at": "1 µM"}
{"target": "MAP3K12 (Homo sapiens, UniProt Q12852)", "effect on": "binding", "remaining binding": "97%"}
{"target": "FGFR2 (Homo sapiens, UniProt P21802)", "effect on": "cell-free assay", "remaining binding": "96%"}
{"target": "YES1 (Homo sapiens, UniProt P07947)", "effect on": "cell-free assay", "remaining binding": "100%"}
{"target": "PIK3CD (Homo sapiens, UniProt O00329)", "effect on": "cell-free assay", "remaining binding": "69%"}
{"target": "Cyclin-dependent kinase 4, with cyclin D3 (CDK4, Homo sapiens, UniProt P11802)", "effect on": "binding", "remaining binding": "100%"}
{"target": "Ribosomal protein S6 kinase alpha-1, C-terminal kinase domain (RPS6KA1, Homo sapiens, UniProt Q15418)", "effect on": "binding", "remaining binding": "100%"}
{"target": "ERBB3 (Homo sapiens, UniProt P21860)", "effect on": "binding", "remaining binding": "91%"}
{"target": "Ribosomal protein S6 kinase alpha-3, N-terminal kinase domain (RPS6KA3, Homo sapiens, UniProt P51812)", "effect on": "binding", "remaining binding": "100%"}
{"target": "MAP3K6 (Homo sapiens, UniProt O95382)", "effect on": "binding", "remaining binding": "98%"}
{"target": "TTK (Homo sapiens, UniProt P33981)", "effect on": "binding", "remaining binding": "100%"}
{"target": "DYRK1A (Homo sapiens, UniProt Q13627)", "effect on": "cell-free assay", "remaining binding": "100%"}
{"target": "MAP3K19 (Homo sapiens, UniProt Q56UN5)", "effect on": "binding", "remaining binding": "100%"}
{"target": "CAMK2A (Homo sapiens, UniProt Q9UQM7)", "effect on": "cell-free assay", "remaining binding": "100%"}
{"target": "CILK1 (Homo sapiens, UniProt Q9UPZ9)", "effect on": "binding", "remaining binding": "100%"}
{"target": "BUB1 (Homo sapiens, UniProt O43683)", "effect on": "binding", "remaining binding": "100%"}
{"target": "PTK6 (Homo sapiens, UniProt Q13882)", "effect on": "binding", "remaining binding": "100%"}
{"target": "EPHA5 (Homo sapiens, UniProt P54756)", "effect on": "cell-free assay", "remaining binding": "100%"}
{"data": "Series 5", "cell line": "mouse MPNST tumor cells", "technique": "high-content immunofluorescence imaging", "item": "nuclear SOX9", "tested at": "10 µM", "time": "12 h", "setting": "mean of 2 replicates", "baseline": "DMSO control", "reading": "higher = more nuclear SOX9"}
{"SMILES": "O=C1NC(=O)c2cc(Nc3ccc(F)cc3)c(Nc3ccc(F)cc3)cc21", "nuclear SOX9 intensity": "149 % of DMSO"}
{"SMILES": "CS(=O)(=O)CCNCc1nc(-c2ccc3ncnc(Nc4ccc(OCc5cccc(F)c5)c(Cl)c4)c3c2)cs1", "nuclear SOX9 intensity": "105 % of DMSO"}
{"SMILES": "O=C(Nc1cc(Cl)ccc1O)Nc1cc(C(F)(F)F)ccc1Cl", "nuclear SOX9 intensity": "112 % of DMSO"}
{"SMILES": "CCCc1nc(C(C)(C)O)c(C(=O)OCc2oc(=O)oc2C)n1Cc1ccc(-c2ccccc2-c2nnn[nH]2)cc1", "nuclear SOX9 intensity": "91.2 % of DMSO"}
{"note": "For quick reference, copied from above (series 4):"}
{"target": "MAP3K19 (Homo sapiens, UniProt Q56UN5)", "effect on": "binding", "remaining binding": "100%"}
{"target": "CAMK2A (Homo sapiens, UniProt Q9UQM7)", "effect on": "cell-free assay", "remaining binding": "100%"}
{"target": "CILK1 (Homo sapiens, UniProt Q9UPZ9)", "effect on": "binding", "remaining binding": "100%"}
{"target": "BUB1 (Homo sapiens, UniProt O43683)", "effect on": "binding", "remaining binding": "100%"}
{"target": "PTK6 (Homo sapiens, UniProt Q13882)", "effect on": "binding", "remaining binding": "100%"}
